Published values of several laboratories.
Parts stem from different laboratories: compare values within a part only. Substitutions count along the parent as printed.

Sample 1
Target: Prothrombin, mature alpha-thrombin (F2, Homo sapiens, UniProt P00734)
Method: aptamer microarray, sandwich
Molecule type: DNA with 2'F-ANA
Medium: in vitro
Concentration: 200 nM
Notes: whole 15-mer aptamer, many near background
Together with: Cy3 exosite-II aptamer, 400 nM
Direction: higher = stronger binding
Endpoint: mean fluorescence intensity
Strand: GGTTGGTGTGGTTGG
2'F-ANA at 1 2 4 6 9 10 12 13 14: 45 a.u.
2'F-ANA at 1 3 4 8 9 10 11 12 13 14: 61.7 a.u.
2'F-ANA at 1 4 7 9 10 11 14 15: 48.2 a.u.
2'F-ANA at 2 4 5 6 11 14: 57.4 a.u.
2'F-ANA at 3 4 6 7 8 11 12 15: 744 a.u.
2'F-ANA at 2 5 6 8 9 10 11 13 14: 47.5 a.u.
2'F-ANA at 1 5 15: 136 a.u.
2'F-ANA at 2 4 6 10 13 14 15: 66.1 a.u.
2'F-ANA at 4 5 6 7 14: 52.2 a.u.

Sample 2
Target: RING finger protein unkempt homolog, zinc fingers 1-6, GST-SBP tag (UNK, Homo sapiens, UniProt Q9C0B0, residues 30-357)
Chain of UniProt Q9C0B0 (30-357, looked up): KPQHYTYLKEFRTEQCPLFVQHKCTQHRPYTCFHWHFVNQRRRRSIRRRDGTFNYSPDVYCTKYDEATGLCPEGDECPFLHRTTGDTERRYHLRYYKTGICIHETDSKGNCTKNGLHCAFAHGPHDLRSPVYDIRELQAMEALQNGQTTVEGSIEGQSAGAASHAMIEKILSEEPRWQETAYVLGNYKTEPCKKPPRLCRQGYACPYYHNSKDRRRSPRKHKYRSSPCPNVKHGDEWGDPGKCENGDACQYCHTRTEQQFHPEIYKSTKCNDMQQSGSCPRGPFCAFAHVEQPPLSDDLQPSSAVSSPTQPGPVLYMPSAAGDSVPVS
Method: RNA Bind-n-Seq
Molecule type: RNA
Medium: in vitro
Concentration: not given
Notes: RNA with constant flanks, ends assumed
Baseline: input RNA pool
Direction: higher = stronger binding
Endpoint: bound/input enrichment
Constant ends, left off below: GGGAGUUCUACAGUCCGACGAUC … CAACAGAGGAUUGAGCAUCA
UUUGUAAAAUUGUCCUAAUCUUUCCUAGCUUUUUAAUAGUUAAUAUUAGAAACUCUUUAACCGUUUUCCUUUCAGUUUGUGAGCUCUUCUCUGUCGCCCUGAAGGGUCACUGUAUUCUGU: 18.2 ratio
CAGCGCCGAGGCCGCGGUUUCCCCCUGGGCCUCCCCAGCAGCAGCCAUGGGCAUCAAAUUUUCCGAAGUUAUCAAACCAUUCUGUGCAGUUCUACCAGAAAUUCAGAAACCGGAAAGGAA: 0.292 ratio
GACACAGUGUGUCUCUCUGAUUGGGCUUCUAAAUCAAAAGCCUGAUGUUCGUGUCCCUCUCACCGGGGGAGCUUUGGACACAGGACCAGUUUGGAAAAGGGUCAGGUAAGGGUUUCCACU: 0.109 ratio
AGUACUGCCCGUGCAAAUCCCACAACACUGAAUGCAAAGUAGCAAUUUCCAUAGUCACAGUCCGGCCGCUUUAGGGCAAUAUUGCCAUGGUUUUACUCAUGUGCAGGUUUUGAAAAUGUA: 16.7 ratio
CUCACGGCCCAGCAUGAGAACUUCAGGAAAAAGCAGAUUGAAGAGCUGAAGGGACAAGAAGUCCGUCCUAAAGUGUACUUCAUGAAGCAGACCAUUGGGAAUUCCUGUGGCACAAUCGGA: 0.116 ratio
UGUCUGGACCGGCACUGGGUUCUGCAGGGUUGAAGACGGGCAACAGAUGCCAGAAGCUCCCUCCGACUGUCACCUGAGUCUGGAGACCGGCUCGCAGCCCCACAGCAUCACACUGCAAGU: 0.131 ratio
UCAUUUUUUGCUGGGGAUAAAAAAGAAGCACACAAACUAAAGGAGGACUUUCGACUGCAUUUCCGAAAUAUUUCAAGAAUUAUGGAUUGUGUUGGUUGUUUUAAAUGUCGUCUGUGGGGA: 0.739 ratio
GUGUUGUGACCCAUUUAACAUACACAAGAAGCUAGCCAAAAAGAACCUGCACGUCAUUGACUCCGAUGAUGCCACUUUUCUGAGCGCCAAGUUUGGAAGACAGCUUGUACCUGGUUGGAA: 0.29 ratio
UCCCCUCAAGCACCAACACACUUUCUGGUGAUACCCAAGAAGCAUAUAUCCCAGAUUUCUGCCGCAGAUGAUGAUGAUGAAAGUCUUCUAGGACAUUUAAUGAUUGUUGGCAAGAAAUGU: 0.34 ratio
UUAUUAUAGCUUUGAAAUAAAAAAUCGUGAGGGAAAAAAAAUCCAAUGAUUGUACUGUGGUCCGGAGUUUUAUUACCAAGACAUUUAUGUCACUUUUCUUUCCCUUGUCAUUUUGAGGGG: 0.765 ratio

Sample 3
Target: CCNB3, cyclin fold, Cln2 fusion (human)
Method: yeast growth competition, sequencing
Medium: yeast
Notes: strong parent motif
Baseline: not given
Direction: higher = stronger binding
Endpoint: normalised enrichment score
Parent: RBL2 docking peptide (human); STTRRRLFVENDS
T2G: 1.24
V9R: 0.543
D12N: 0.378
R6I: 1.43
R6V: 0.919
S1R: 1.18
R4V: 0.316

Sample 4
Molecule: PhoQ, residues 284 288 289 292 302 303 MLMVEA
Method: Sort-seq
Refers to: YFP reporter
Medium: E. coli
Notes: PhoQ-PhoP variant library
Together with: 10 µM Mg2+
Baseline: high Mg2+ state
Direction: higher = stronger signaling
Endpoint: fold induction
PhoP, residues 12 14 15 18 19 SFCSL (Escherichia coli, UniProt P23836): 18.6
PhoP, residues 12 14 15 18 19 AYFRS (Escherichia coli, UniProt P23836): 12.1
PhoP, residues 12 14 15 18 19 HHYTI (Escherichia coli, UniProt P23836): 15
